Measured values collected from several papers.
± gives the spread as reported.

`CN(C)c1ccc(C(=O)NCCCCN2CCN(c3ccccc3O[11CH3])CC2)cc1` gave a brain uptake of 0.189 %ID/g (Sprague Dawley rat, male, total brain; intravenous, 5 min).
For `CC[C@H](C)C(=O)N1CCC(NC(=O)Nc2ccc(OC(F)(F)F)c(F)c2)CC1`, the half-life was 59.5 h (human; oral, 8 mg, fed, mean).
For `CC[C@H](C)[C@H](NC(=O)[C@H](CCC(=O)O)NC(=O)[C@H](CCC(=O)O)NC(=O)[C@H](Cc1ccccc1)NC(=O)[C@H](CC(=O)O)NC(=O)CNC(=O)[C@H](CC(N)=O)NC(=O)CNC(=O)CNC(=O)CNC(=O)CNC(=O)[C@@H]1CCCN1C(=O)[C@H](CCCNC(=N)N)NC(=O)[C@@H]1CCCN1C(=O)[C@H](N)Cc1ccccc1)C(=O)N1CCC[C@H]1C(=O)N[C@@H](CCC(=O)O)C(=O)N[C@@H](CCC(=O)O)C(=O)N[C@@H](Cc1ccc(O)cc1)C(=O)N[C@@H](CC(C)C)C(=O)O`, the Vd was 0.17 L/kg (male human, plasma; intravenous, 0.5 mg/kg, single dose, healthy volunteers).
The tissue uptake of `N=C(N)NCc1ccc(C(=O)NCCCC[C@H](NC(=O)CCCCCCC(=O)NCCCC[C@H](NC(=O)N[C@@H](CCC(=O)O)C(=O)O)C(=O)O)C(=O)O)cc1[211At]` is reported as 3.8 ± 2.39 %ID/g (SCID mouse, PC-3 xenografts, liver; 2 h).
`CC(C)[C@H](NC(=O)CNC(=O)[C@H](CCC(N)=O)NC(=O)[C@H](C)N)C(=O)O` — result for “subjects with unrelated AE”: 25% (healthy male volunteers; intravenous, 45 mg/kg/h, 2 h, together with: LPS 2 ng/kg).
The Tm of `CC[C@H](C)[C@H](NC(=O)[C@H](C)NC(=O)CNC(=O)[C@@H](N)CCSC)C(=O)N[C@@H](C)C(=O)N[C@@H](CCCCN)C(=O)N[C@@H](CC(C)C)C(=O)N[C@@H](CCCNC(=N)N)C(=O)N[C@@H](C)C(=O)N[C@@H](CCCCN)C(=O)N[C@@H](Cc1ccccc1)C(=O)NCC(=O)N[C@@H](Cc1c[nH]c2ccccc12)C(=O)N1CCC[C@H]1C(=O)N[C@@H](Cc1ccccc1)C(=O)N[C@H](C(=O)N[C@@H](CCCCN)C(=O)N[C@@H](CCCCN)C(=O)N[C@@H](Cc1ccccc1)C(=O)N[C@@H](Cc1ccc(O)cc1)C(=O)N[C@@H](CCCCN)C(=O)N[C@@H](CCC(N)=O)C(=O)N[C@H](C(=O)N[C@@H](CCSC)C(=O)N[C@@H](CCC(N)=O)C(=O)N[C@@H](Cc1ccccc1)C(=O)N[C@H](C(=O)NCC(=O)N[C@@H](CCC(N)=O)C(=O)NCC(=O)N[C@@H](Cc1c[nH]c2ccccc12)C(=O)N[C@H](C(=O)N[C@H](C(=O)N[C@@H](CC(=O)O)C(=O)N[C@@H](CCC(N)=O)C(=O)N[C@H](C(=O)N[C@@H](CCC(=O)O)C(=O)N[C@@H](CCCCN)C(=O)N[C@@H](Cc1c[nH]c2ccccc12)C(=O)N[C@@H](CC(C)C)C(=O)N[C@@H](CCCCN)C(=O)N[C@@H](CCCNC(=N)N)C(=O)N[C@@H](Cc1c[nH]cn1)C(=O)O)[C@@H](C)CC)[C@@H](C)CC)[C@@H](C)O)[C@@H](C)CC)[C@@H](C)CC)[C@@H](C)CC` is reported as 48.3 ± 0.2 °C (thermal unfolding, far-UV CD; 10 mM sodium phosphate; 5-20 µM, pH 7.2).
For `CCn1ccc(-c2cc(-c3cnn(C)c3)cc([C@@H](C)NC(=O)c3cc(OCCN(C)C)ccc3C)c2)n1`, the oral bioavailability was 72.8% (C57BL/6J mice, male; oral, 50 mg/kg, versus i.v. 10 mg/kg).
The initial velocity of `CC(=O)NCC(=O)N[C@@H](C)C(=O)N[C@@H](CCCCNP(=O)(O)O)C(=O)NCC(=O)NCC(N)=O` is reported as 2.48e-09 M/s (non-enzymatic hydrolysis; 100 µM, pH 7.8, no enzyme).
`CC(CCC(=O)NCC(=O)O)C1CCC2C3CCC4CC(OC5OC(C(=O)O)C(O)C(O)C5O)CCC4(C)C3CC(O)C12C` (centres unmarked) has a plasma concentration of 345 ng/mL (human, SLCO1B1 *15/*15, plasma; geometric mean, sex-adjusted).
Under “tissue uptake ratio”, `CCNc1cc2[o+]c3cc(NCC)c(C)cc3c(-c3ccccc3C(=O)OCCOCC[18F])c2cc1C` is recorded as 4.8 (rat; 120 min; baseline: heart over bone).
`O=C(O)CC[C@H](NC(=O)O[C@@H](CCCCNC(=O)c1ccc([18F])cc1)C(=O)O)C(=O)O` has a tissue uptake of 1.12 ± 0.74 %ID/g (mouse, PC-3 PIP/flu xenografts, heart; 30 min).
`COC(=O)C[C@](O)(CCCC(C)(C)OC(C)=O)C(=O)O[C@@H]1C(OC)=C[C@]23CCCN2CCc2cc4c(cc2[C@H]13)OCO4` has a tissue concentration of 346 ng/mL (CD1 mouse, lung; subcutaneous, 1 mg/kg, 0.5 h).
Under “brain clearance time”, `CCc1cc2c(cc1N1CCC(N3CCOCC3)CC1)C(C)(C)c1c(c3ccc(C#N)cc3n1CC[18F])C2=O` is recorded as no more than 30 min (PET; healthy nude mice, brain).
With `C[C@@H](O)[C@H](NC(=O)[C@H](CCCCN)NC(=O)[C@H](Cc1c[nH]c2ccccc12)NC(=O)CN)C(=O)N[C@@H](CCCNC(=N)N)C(=O)NC(C)(C)C(=O)N[C@@H](CCCNC(=N)N)C(=O)NC(C)(C)C(=O)N[C@H](C(=O)N[C@@H](CO)C(=O)N[C@@H](Cc1c[nH]cn1)C(=O)N[C@@H](Cc1ccc(O)cc1)C(=O)NCC(=O)O)[C@@H](C)O` the lymphocytes was 20 to 40% (C57BL/6 mouse, blood; intravenous, 50 mg/kg, 10 h; baseline: leukocytes).
For `COc1ccc(F)cc1S(=O)(=O)Nc1cnc2c(c1)C(=O)NCCO2`, the unbound fraction was 0.141 to 0.147 (ultracentrifugation; rat plasma).
For `CC(C)[C@H](NC(=O)CNC(=O)[C@H](CCC(N)=O)NC(=O)[C@H](C)N)C(=O)O`, “subjects with mild adverse events” read 16.7% (human; 30 mg/kg single dose).
`CC[C@H](C)[C@H](NC(=O)[C@H](CCCCN)NC(=O)CNC(=O)[C@H](CC(C)C)NC(=O)[C@@H](NC(=O)[C@H](C)NC(=O)[C@H](CCCCN)NC(=O)CNC(=O)[C@H](C)NC(=O)CNC(=O)[C@H](CCCCN)NC(=O)[C@H](CCSC)NC(=O)[C@H](CCCCN)NC(=O)[C@@H](NC(=O)[C@H](Cc1c[nH]c2ccccc12)NC(=O)[C@H](CC(C)C)NC(=O)[C@H](CCCCN)NC(=O)[C@H](CCCCN)NC(=O)[C@H](CC(C)C)NC(=O)[C@@H](N)CC(C)C)[C@@H](C)O)C(C)C)C(=O)N[C@@H](CCCCN)C(=O)NCC(=O)N[C@@H](CC(C)C)C(=O)N[C@@H](CC(C)C)C(=O)O` gave a Stern-Volmer constant of 16.5 ± 1.97 M⁻¹ (acrylamide quenching; PBS, no lipid; 2 µM, together with: acrylamide).
`O=C1C[NH+]2CP(=O)([O-])[O][99Tc-2]2[O]1.[C-]#[O+].[C-]#[O+].[C-]#[O+]` (centres unmarked) has an intact tracer of greater than 99% (radio-HPLC; rat, urine; baseline: activity).
`COc1cccc2c1C(=O)c1c(O)c3c(c(O)c1C2=O)CC(O)(C(CO)=NNC(=O)CCCCC(=O)NNC(=O)CCCc1ccc(I)cc1)CC3OC1CC(N)C(O)C(C)O1` (centres unmarked): “terminal half-life ratio” 5.5 fold (ICR mice, male, plasma; intravenous, 6 mg/kg, equimolar doses; baseline: compound over free drug).
`CSCC[C@H](NC(=O)CNC(=O)[C@H](CC(=O)O)NC(=O)[C@@H](NC(=O)[C@@H](NC(=O)[C@@H](NC(=O)CNC(=O)[C@H](CCC(N)=O)NC(=O)[C@H](CCSC)NC(=O)[C@H](CC(=O)O)NC(=O)[C@H](C)NC(=O)[C@H](C)NC(=O)[C@@H](NC(=O)[C@H](CO)NC(=O)[C@@H](N)CC(C)C)[C@@H](C)O)C(C)C)C(C)C)[C@@H](C)O)C(=O)N[C@@H](C)C(=O)N[C@@H](CO)C(=O)NCC(=O)N[C@@H](CC(C)C)C(=O)N[C@@H](CC(=O)O)C(=O)N[C@@H](CCCCN)C(=O)N[C@@H](CC(=O)O)C(=O)N[C@@H](Cc1ccc(O)cc1)C(=O)N[C@@H](CC(C)C)C(=O)N[C@@H](CCCCN)C(=O)N1CCC[C@H]1C(=O)N[C@@H](CC(=O)O)C(=O)N[C@@H](CC(=O)O)C(=O)O` has a Cmax of 9800 ng/mL (human, serum; intravenous, 3.33 mg/kg, patients, infusion).
For `CC(C)C[C@H](NC(=O)[C@H](CCCCN)NC(=O)[C@H](CCC(=O)O)NC(=O)[C@H](C)NC(=O)[C@@H](NC(=O)[C@H](CCCCN)NC(=O)[C@H](CC(=O)O)NC(=O)[C@H](Cc1ccc(O)cc1)NC(=O)[C@H](Cc1ccccc1)NC(=O)[C@H](C)NC(=O)[C@H](CCCCN)NC(=O)[C@H](CC(C)C)NC(=O)[C@H](Cc1c[nH]c2ccccc12)NC(=O)[C@@H](N)CC(=O)O)C(C)C)C(=O)N[C@@H](CCCCN)C(=O)N[C@@H](CCC(=O)O)C(=O)N[C@@H](C)C(=O)N[C@@H](Cc1ccccc1)C(=O)N1CCC[C@H]1C(=O)N[C@@H](CC(=O)O)C(=O)N[C@@H](Cc1c[nH]c2ccccc12)C(=O)N[C@@H](C)C(=O)N[C@@H](CCCCN)C(=O)N[C@@H](C)C(=O)N[C@@H](C)C(=O)N[C@@H](Cc1ccc(O)cc1)C(=O)N[C@@H](CC(=O)O)C(=O)N[C@@H](CCCCN)C(=O)N[C@@H](C)C(=O)N[C@@H](C)C(=O)N[C@@H](CCC(=O)O)C(=O)N[C@@H](CCCCN)C(=O)N[C@@H](C)C(=O)N[C@@H](CCCCN)C(=O)N[C@@H](CCC(=O)O)C(=O)N[C@@H](C)C(=O)N[C@@H](C)C(=O)O`, the Cmax was 392000 ng/mL (cynomolgus monkey female, plasma; intravenous infusion, 25 mg/kg, day 1, 30 min infusion).
The creatine kinase of `CSCC[C@@H]1NC(=O)[C@@H]2CSSC[C@H](NC(=O)[C@H](CO)NC(=O)[C@H](C)N)C(=O)N[C@@H](CCCNC(=N)N)C(=O)N[C@@H]([C@@H](C)O)C(=O)N3CCC[C@H]3C(=O)N[C@@H](CCCCN)C(=O)N[C@@H](CC(=O)O)C(=O)N[C@H]3CSSC[C@H](NC(=O)[C@H](CCCCN)NC(=O)[C@H](CCCNC(=N)N)NC(=O)[C@H](CC(N)=O)NC1=O)C(=O)N[C@@H](CCCCN)C(=O)N[C@H]1CSSC[C@H](NC(=O)[C@@H]4CCCN4C(=O)[C@H](CC(=O)O)NC(=O)[C@H](C)NC3=O)C(=O)N[C@@H](C)C(=O)N[C@@H](CCCCN)C(=O)N[C@@H](CCC(=O)O)C(=O)N[C@@H]([C@@H](C)O)C(=O)NCC(=O)N[C@@H](CSSC[C@@H](C(N)=O)NC(=O)[C@H](CCCNC(=N)N)NC(=O)[C@H](CC(N)=O)NC1=O)C(=O)N1CCC[C@H]1C(=O)N[C@@H](Cc1ccc(O)cc1)C(=O)NCC(=O)N[C@@H](CCCCN)C(=O)N2` is reported as 314 U/L (DA rat, pristane-induced arthritis, serum; subcutaneous, 0.1 mg/kg once weekly, end of 21-day trial).
`CN[C@](C)(C[18F])C(=O)O` has a tissue uptake of 0.3 ± 0.1 %ID/g (SCID mouse SK-OV-3 xenograft, brain; 15 min, post injection).
